Measurements from different studies.
Compare with care: the assays were run in different laboratories. Several values in a cell are separate wells, animals, samples, runs or records.
Target: Glucagon-like peptide 1 receptor (GLP1R, Homo sapiens, UniProt P43220)
Sequence of UniProt P43220 (whole entry, looked up): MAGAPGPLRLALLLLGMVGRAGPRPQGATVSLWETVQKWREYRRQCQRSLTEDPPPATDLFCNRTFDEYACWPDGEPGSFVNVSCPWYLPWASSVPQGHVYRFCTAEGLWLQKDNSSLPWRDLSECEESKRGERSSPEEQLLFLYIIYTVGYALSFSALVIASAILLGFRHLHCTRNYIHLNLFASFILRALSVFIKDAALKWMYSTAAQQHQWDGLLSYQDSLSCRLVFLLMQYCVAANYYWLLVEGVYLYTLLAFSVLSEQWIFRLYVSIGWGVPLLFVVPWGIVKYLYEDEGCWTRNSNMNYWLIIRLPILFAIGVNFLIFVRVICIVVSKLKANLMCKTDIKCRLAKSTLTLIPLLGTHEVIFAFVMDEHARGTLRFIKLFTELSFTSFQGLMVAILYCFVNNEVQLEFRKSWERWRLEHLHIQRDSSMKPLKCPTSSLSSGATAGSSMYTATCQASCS
Mode: agonist

SMILES | observed | technique | cells | EC50
CC[C@H](C)[C@H](NC(=O)[C@H](Cc1ccccc1)NC(=O)[C@H](CCC(=O)O)NC(=O)[C@H](CCCCN)NC(=O)[C@H](C)NC(=O)[C@H](C)NC(=O)[C@H](CCC(N)=O)NC(=O)CNC(=O)[C@H](CCC(=O)O)NC(=O)[C@H](CC(C)C)NC(=O)[C@H](Cc1ccc(O)cc1)NC(=O)[C@H](CO)NC(=O)[C@H](CO)NC(=O)C(C)(C)NC(=O)[C@H](CC(=O)O)NC(=O)[C@H](CO)NC(=O)[C@@H](NC(=O)[C@H](Cc1ccccc1)NC(=O)[C@@H](NC(=O)CNC(=O)[C@H](CCC(=O)O)NC(=O)[C@H](C)NC(=O)[C@@H](N)Cc1c[nH]cn1)[C@@H](C)O)[C@@H](C)O)C(=O)N[C@@H](C)C(=O)N[C@@H](Cc1c[nH]c2ccccc12)C(=O)N[C@@H](CC(C)C)C(=O)N[C@H](C(=O)N[C@@H](CCCCN)C(=O)NCC(=O)N[C@@H](CCCNC(=N)N)C(N)=O)C(C)C | cAMP | luciferase |  | 0.0316 nM
CC[C@H](C)[C@H](NC(=O)[C@H](Cc1ccccc1)NC(=O)[C@H](CCC(=O)O)NC(=O)[C@H](CCCCN)NC(=O)[C@H](C)NC(=O)[C@H](C)NC(=O)[C@H](CCC(N)=O)NC(=O)CNC(=O)[C@H](CCC(=O)O)NC(=O)[C@H](CC(C)C)NC(=O)[C@H](Cc1ccc(O)cc1)NC(=O)[C@H](CO)NC(=O)[C@H](CO)NC(=O)[C@@H](NC(=O)[C@H](CC(=O)O)NC(=O)[C@H](CO)NC(=O)[C@@H](NC(=O)[C@H](Cc1ccccc1)NC(=O)[C@@H](NC(=O)CNC(=O)[C@H](CCC(=O)O)NC(=O)[C@H](C)NC(=O)[C@H](Cc1c[nH]cn1)NC[C@@H](N)CO)[C@@H](C)O)[C@@H](C)O)C(C)C)C(=O)N[C@@H](C)C(=O)N[C@@H](Cc1c[nH]c2ccccc12)C(=O)N[C@@H](CC(C)C)C(=O)N[C@H](C(=O)N[C@@H](CCCCN)C(=O)NCC(=O)N[C@@H](CCCNC(=N)N)C(N)=O)C(C)C | reporter gene | luciferase |  | 0.0251 nM and 0.025 nM
CC[C@H](C)[C@H](NC(=O)[C@H](Cc1ccccc1)NC(=O)[C@H](CCC(=O)O)NC(=O)[C@H](CCCCN)NC(=O)[C@H](C)NC(=O)[C@H](C)NC(=O)[C@H](CCC(N)=O)NC(=O)CNC(=O)[C@H](CCC(=O)O)NC(=O)[C@H](CC(C)C)NC(=O)[C@H](Cc1ccc(O)cc1)NC(=O)[C@H]1CCC[C@@H]1NC(=O)[C@H](CO)NC(=O)C(C)(C)NC(=O)[C@H](CC(=O)O)NC(=O)[C@H](CO)NC(=O)[C@@H](NC(=O)[C@H](Cc1ccccc1)NC(=O)[C@@H](NC(=O)CNC(=O)[C@H](CCC(=O)O)NC(=O)C(C)(C)NC(=O)[C@@H](N)Cc1c[nH]cn1)[C@@H](C)O)[C@@H](C)O)C(=O)N[C@@H](C)C(=O)N[C@@H](Cc1c[nH]c2ccccc12)C(=O)N[C@@H](CC(C)C)C(=O)N[C@H](C(=O)N[C@@H](CCCCN)C(=O)NCC(=O)N[C@@H](CCCNC(=N)N)C(N)=O)C(C)C | β-arrestin-1 recruitment | BRET | HEK293FT with GRK5 | 2.69 nM
CC[C@H](C)[C@H](NC(=O)[C@H](Cc1ccccc1)NC(=O)[C@H](CCC(=O)O)NC(=O)[C@H](CCCCN)NC(=O)[C@H](C)NC(=O)[C@H](C)NC(=O)[C@H](CCC(N)=O)NC(=O)CNC(=O)[C@H](CCC(=O)O)NC(=O)[C@H](CC(C)C)NC(=O)[C@H](Cc1ccc(O)cc1)NC(=O)[C@H](CO)NC(=O)[C@H](CO)NC(=O)[C@@H](NC(=O)[C@H](CC(=O)O)NC(=O)[C@H](CO)NC(=O)[C@@H](NC(=O)CN(C[C@@H](NC(=O)CNC(=O)CN(C[C@H](C)NC(=O)[C@@H](N)Cc1c[nH]cn1)S(=O)(=O)c1ccc(C(=O)O)cc1)[C@H](C)O)S(=O)(=O)Cc1ccccc1)[C@@H](C)O)C(C)C)C(=O)N[C@@H](C)C(=O)N[C@@H](Cc1c[nH]c2ccccc12)C(=O)N[C@@H](CC(C)C)C(=O)N[C@H](C(=O)N[C@@H](CCCCN)C(=O)NCC(=O)N[C@@H](CCCNC(=N)N)C(=O)NCC(N)=O)C(C)C | reporter gene | luciferase |  | > 1000 nM
CC[C@H](C)[C@H](NC(=O)[C@H](Cc1ccccc1)NC(=O)[C@H](CCC(=O)O)NC(=O)[C@H](CCCCN)NC(=O)[C@H](C)NC(=O)[C@H](C)NC(=O)[C@H](CCC(N)=O)NC(=O)CNC(=O)[C@H](CCC(=O)O)NC(=O)[C@H](CC(C)C)NC(=O)[C@H](Cc1ccc(O)cc1)NC(=O)[C@H](CO)NC(=O)[C@H](CO)NC(=O)[C@@H](NC(=O)[C@H](CC(=O)O)NC(=O)[C@H](CO)NC(=O)[C@@H](NC(=O)[C@H](Cc1ccccc1)NC(=O)[C@@H](NC(=O)CNC(=O)[C@H](CCC(=O)O)NC(=O)[C@H](C)NC(=O)[C@H](Cc1c[nH]cn1)NCc1ccc(-c2ccccc2)cc1)[C@@H](C)O)[C@@H](C)O)C(C)C)C(=O)N[C@@H](C)C(=O)N[C@@H](Cc1c[nH]c2ccccc12)C(=O)N[C@@H](CC(C)C)C(=O)N[C@H](C(=O)N[C@@H](CCCCN)C(=O)NCC(=O)N[C@@H](CCCNC(=N)N)C(N)=O)C(C)C | reporter gene | luciferase |  | 0.0158 nM
CC[C@H](C)[C@H](NC(=O)[C@H](Cc1ccccc1)NC(=O)[C@H](CCC(=O)O)NC(=O)[C@H](CCCCN)NC(=O)[C@H](C)NC(=O)[C@H](C)NC(=O)[C@H](CCC(N)=O)NC(=O)CNC(=O)[C@H](CCC(=O)O)NC(=O)[C@H](CC(C)C)NC(=O)[C@H](Cc1ccc(O)cc1)NC(=O)[C@H](CO)NC(=O)[C@H](CO)NC(=O)[C@@H](NC(=O)[C@H](CC(=O)O)NC(=O)[C@H](CO)NC(=O)[C@@H](NC(=O)CN(C[C@@H](NC(=O)CNC(=O)CN(C[C@H](C)NC(=O)[C@H](Cc1c[nH]cn1)NC(C)=O)S(=O)(=O)c1ccc(C(=O)O)cc1)[C@H](C)O)S(=O)(=O)Cc1ccccc1)[C@@H](C)O)C(C)C)C(=O)N[C@@H](C)C(=O)N[C@@H](Cc1c[nH]c2ccccc12)C(=O)N[C@@H](CC(C)C)C(=O)N[C@H](C(=O)N[C@@H](CCCCN)C(=O)NCC(=O)N[C@@H](CCCNC(=N)N)C(=O)NCC(N)=O)C(C)C | reporter gene | luciferase |  | > 1000 nM
CCCCCCCCCCCCCCCC(=O)N[C@@H](CCC(=O)NCCCC[C@H](NC(=O)[C@H](CC(=O)O)NC(=O)[C@H](CO)NC(=O)[C@@H](NC(=O)[C@H](Cc1ccccc1)NC(=O)[C@@H](NC(=O)CNC(=O)[C@H](CCC(N)=O)NC(=O)[C@H](C)NC(=O)[C@H](Cc1c[nH]cn1)NCC(F)(F)F)[C@@H](C)O)[C@@H](C)O)C(=O)N[C@@H](CO)C(=O)N[C@@H](CCCCN)C(=O)N[C@@H](Cc1ccc(O)cc1)C(=O)N[C@@H](CC(C)C)C(=O)N[C@@H](CC(=O)O)C(=O)N[C@@H](CCC(=O)O)C(=O)N[C@@H](CCCNC(=N)N)C(=O)N[C@@H](C)C(=O)N[C@@H](C)C(=O)N[C@@H](CCC(N)=O)C(=O)N[C@@H](CC(=O)O)C(=O)N[C@@H](Cc1ccccc1)C(=O)N[C@H](C(=O)N[C@@H](CCC(N)=O)C(=O)N[C@@H](Cc1c[nH]c2ccccc12)C(=O)N[C@@H](CC(C)C)C(=O)N[C@@H](CC(C)C)C(=O)N[C@@H](CC(=O)O)C(=O)NCC(=O)NCC(=O)N1CCC[C@H]1C(=O)N[C@@H](CO)C(=O)N[C@@H](CO)C(=O)NCC(=O)N[C@@H](C)C(=O)N1CCC[C@H]1C(=O)N1CCC[C@H]1C(=O)N1CCC[C@H]1C(=O)N[C@@H](CO)C(N)=O)C(C)C)C(=O)O | reporter gene | luciferase |  | 0.00631 nM
CC[C@H](C)[C@H](NC(=O)[C@H](Cc1ccccc1)NC(=O)[C@H](CCC(=O)O)NC(=O)[C@H](CCCCN)NC(=O)[C@H](C)NC(=O)[C@H](C)NC(=O)[C@H](CCC(N)=O)NC(=O)CNC(=O)[C@H](CCC(=O)O)NC(=O)[C@H](CC(C)C)NC(=O)[C@H](Cc1ccc(O)cc1)NC(=O)C[C@@H](NC(=O)[C@H](CO)NC(=O)C(C)(C)NC(=O)[C@H](CC(=O)O)NC(=O)[C@H](CO)NC(=O)[C@@H](NC(=O)[C@H](Cc1ccccc1)NC(=O)[C@@H](NC(=O)CNC(=O)[C@H](CCC(=O)O)NC(=O)[C@H](C)NC(=O)[C@@H](N)Cc1c[nH]cn1)[C@@H](C)O)[C@@H](C)O)C(C)C)C(=O)N[C@@H](C)C(=O)N[C@@H](Cc1c[nH]c2ccccc12)C(=O)N[C@@H](CC(C)C)C(=O)N[C@H](C(=O)N[C@@H](CCCCN)C(=O)NCC(=O)N[C@@H](CCCNC(=N)N)C(N)=O)C(C)C | cAMP | luciferase |  | 0.219 nM
CC(=O)N[C@@H](Cc1c[nH]cn1)C(=O)N[C@@H](C)C(=O)N[C@@H](CCC(=O)O)C(=O)NCC(=O)N[C@H](C(=O)N[C@@H](Cc1ccccc1)C(=O)N[C@H](C(=O)N[C@@H](CO)C(=O)N[C@@H](CC(=O)O)C(=O)N[C@H](C(=O)N[C@@H](CO)C(=O)N[C@@H](CO)C(=O)N[C@@H](Cc1ccc(O)cc1)C(=O)N[C@@H](CC(C)C)C(=O)N[C@@H](CCC(=O)O)C(=O)NCC(=O)N[C@@H](CCC(N)=O)C(=O)N[C@@H](C)C(=O)N[C@@H](C)CN(CC(=O)N[C@@H](CCC(=O)O)C(=O)N[C@@H](Cc1ccccc1)CN(CC(=O)N[C@@H](C)C(=O)N[C@@H](Cc1c[nH]c2ccccc12)CN(CC(=O)N[C@H](C(=O)N[C@@H](CCCCN)CN(CC(=O)N[C@@H](CCCNC(=N)N)C(=O)N[C@@H](CCCCN)CN(CC(N)=O)S(C)(=O)=O)S(C)(=O)=O)C(C)C)S(=O)(=O)CC(C)C)S(=O)(=O)CC(C)C)S(=O)(=O)CCN)C(C)C)[C@@H](C)O)[C@@H](C)O | reporter gene | luciferase |  | > 1000 nM
CC[C@H](C)[C@H](NC(=O)[C@H](Cc1ccccc1)NC(=O)[C@H](CCC(=O)O)NC(=O)[C@H](CCCCN)NC(=O)[C@H](C)NC(=O)[C@H](C)NC(=O)[C@H](CCC(N)=O)NC(=O)CNC(=O)[C@H](CCC(=O)O)NC(=O)[C@H](CC(C)C)NC(=O)[C@H](Cc1ccc(O)cc1)NC(=O)[C@H](CO)NC(=O)[C@H](CO)NC(=O)[C@@H](NC(=O)[C@H](CC(=O)O)NC(=O)[C@H](CO)NC(=O)[C@@H](NC(=O)[C@H](Cc1ccccc1)NC(=O)[C@@H](NC(=O)CNC(=O)[C@@H](N)CCC(=O)O)[C@@H](C)O)[C@@H](C)O)C(C)C)C(=O)N[C@@H](C)C(=O)N[C@@H](Cc1c[nH]c2ccccc12)C(=O)N[C@@H](CC(C)C)C(=O)N[C@H](C(=O)N[C@@H](CCCCN)C(=O)NCC(=O)N[C@@H](CCCNC(=N)N)C(N)=O)C(C)C |  |  | human cells | 363 nM

Repeated from above:
SMILES | observed | technique | cells | EC50
CC[C@H](C)[C@H](NC(=O)[C@H](Cc1ccccc1)NC(=O)[C@H](CCC(=O)O)NC(=O)[C@H](CCCCN)NC(=O)[C@H](C)NC(=O)[C@H](C)NC(=O)[C@H](CCC(N)=O)NC(=O)CNC(=O)[C@H](CCC(=O)O)NC(=O)[C@H](CC(C)C)NC(=O)[C@H](Cc1ccc(O)cc1)NC(=O)[C@H](CO)NC(=O)[C@H](CO)NC(=O)[C@@H](NC(=O)[C@H](CC(=O)O)NC(=O)[C@H](CO)NC(=O)[C@@H](NC(=O)CN(C[C@@H](NC(=O)CNC(=O)CN(C[C@H](C)NC(=O)[C@@H](N)Cc1c[nH]cn1)S(=O)(=O)c1ccc(C(=O)O)cc1)[C@H](C)O)S(=O)(=O)Cc1ccccc1)[C@@H](C)O)C(C)C)C(=O)N[C@@H](C)C(=O)N[C@@H](Cc1c[nH]c2ccccc12)C(=O)N[C@@H](CC(C)C)C(=O)N[C@H](C(=O)N[C@@H](CCCCN)C(=O)NCC(=O)N[C@@H](CCCNC(=N)N)C(=O)NCC(N)=O)C(C)C | reporter gene | luciferase |  | > 1000 nM
